Assay results gathered from unrelated publications.
Compare with care: the assays were run in different laboratories. ± marks the error that the study gave. ≈ marks a conversion by molar mass, not a printed value.
Organism: Staphylococcus aureus

SMILES | assay | test system | conditions | how to read | quantity | value
COc1cc(NC(=O)CSc2nc3ccccc3c(=O)n2-c2ccc(S(N)(=O)=O)cc2)cc(OC)c1OC | microbial growth, well diffusion | MRSA | 500 µg/mL, 24 h | – | inhibition zone | 12 mm
CC(C)C[C@H](NC(=O)[C@H](CC(N)=O)NC(=O)[C@H](CCCNC(=N)N)NC(=O)[C@@H](CC(C)C)NC(=O)[C@H](Cc1ccc(-c2ccccc2)cc1)NC(=O)[C@H](CC(=O)O)NC(=O)[C@H](CCCCN)NC(=O)[C@@H](CC(C)C)NC(=O)[C@H](CCCNC(=N)N)NC(=O)[C@H](CCC(N)=O)NC(=O)[C@@H](NC(=O)[C@@H](CC(C)C)NC(=O)[C@H](CCCNC(=N)N)NC(=O)[C@H](CCCCN)NC(=O)[C@H](Cc1ccc(-c2ccccc2)cc1)NC(=O)CN)C(C)C)C(=O)N[C@H](C(N)=O)C(C)C | XTT | USA300 LAC, 6 h preformed biofilm | 1 × MIC, 24 h | – | viable biofilm cells | 25%
S=c1n(CN2CCN(c3ccccc3)CC2)nc(C23CC4CC(CC(C4)C2)C3)n1-c1ccccc1 | – | IFO 3060 | 200 µg/disc, 24 h, 37 °C | – | inhibition zone diameter | 19 mm
COc1cccc(C2Nc3ccccc3C3=[O+][Cu-2]4([Cl])[O]c5c(cccc5OC)C=[N+]4N32)c1O (centres unmarked) | respiratory activity, MTT | ATCC 29213 | 0.25 × MIC | – | inhibition | 96.2%
CCCCCCCCCC1CC2CCC3CC(CCCCCCCCC)NC(=N1)N23 (centres unmarked) | bacterial growth | MRSA ATCC 33591 | – | – | IC50 | 2.44 µM
S=c1n(CN2CCN(c3ccccn3)CC2)nc(C23CC4CC(CC(C4)C2)C3)n1-c1ccccc1 | – | IFO 3060 | 200 µg/disc, 24 h, 37 °C | – | inhibition zone diameter | 28 mm
CCCCCCCCCC1N=C(N)N=C(N)N1c1ccccc1C.Cl (racemic) | broth microdilution | ATCC 11632 | added: 7.4 mg/mL thymidine | – | MIC90 | 8 µM
NS(=O)(=O)c1ccc(-n2c(S)nc3ccccc3c2=O)cc1 | microbial growth, well diffusion | ATCC29213 | 500 µg/mL, 24 h | – | inhibition zone | 13 mm
CC(=O)[O-].O.[Cu+2].[O-]c1ccc(Br)cc1C=NCCN1CCOCC1 | – | – | 20 µL of 100 µM per disc | – | inhibition zone diameter | 18 mm
Cc1cc(=O)oc2cc3c(c(C)c12)C(=O)c1c(O)cccc1C3=O | – | MTCC 96 | 100 µg/disc | – | zone of inhibition | < 8 mm
CCCCCCCCCCCCCC(=O)N[C@@H](CCCNC(=N)N)C(=O)N[C@@H](CCCNC(=N)N)C(=O)N[C@@H](CCCNC(=N)N)C(N)=O | XTT | USA300 | 1.56 µM, 24 h biofilm, added: daptomycin 3.12 µM | – | biofilm eradication | ~95%
Oc1ccccc1C1Nc2ccccc2C2=[O+][Cu-2]3([Cl])[O]c4ccccc4C=[N+]3N21 (centres unmarked) | respiratory activity, MTT | ATCC 29213 | 0.5 × MIC | – | inhibition | 92.9%
O=C(O)CN1C(=O)/C(=C/c2ccc(-c3ccc(N(c4ccccc4)c4ccccc4)cc3)cc2)NC1=S | broth microdilution | ATCC 6538 | – | – | MBC/MIC ratio | 2
CN[C@H](CC(C)C)C(=O)N[C@H]1C(=O)N[C@@H](CC(N)=O)C(=O)N[C@H]2C(=O)N[C@H]3C(=O)N[C@H](C(=O)N[C@H](C(=O)O)c4cc(O)cc(O)c4-c4cc3ccc4O)[C@H](O)c3ccc(c(Cl)c3)Oc3cc2cc(c3O[C@@H]2O[C@H](CO)[C@@H](O)[C@H](O)[C@H]2O[C@H]2C[C@](C)(NCc3ccc(C(=O)OCCCCCCN(Cc4ccccn4)Cc4ccccn4)cc3)[C@H](O)[C@H](C)O2)Oc2ccc(cc2Cl)[C@H]1O | – | MRSA exponential phase | 2 and 4 × MIC | – | time to complete eradication | 12 h
C=C(C)C(=O)NCCCCCCCCCCOCc1cn(CCCCCCCCCCNC(=O)C(=C)C)n[n+]1C | microbial growth, absorbance | – | 24 h | – | IC50 | 21.5 µM
CNC(CC(C)C)C(=O)NC1C(=O)NC(CC(N)=O)C(=O)NC2C(=O)NC3C(=O)NC(C(=O)NC(C(=O)O)c4cc(O)cc(O)c4-c4cc3ccc4O)C(O)c3ccc(c(Cl)c3)Oc3cc2cc(c3OC2OC(CO)C(O)C(O)C2OC2CC(C)(NC(=O)CCCCCCCCC[N+](C)(C)C)C(O)C(C)O2)Oc2ccc(cc2Cl)C1O (centres unmarked) | agar dilution | MRSA4 | – | relative to: vancomycin, higher = more active | MIC fold improvement | 8 fold

SMILES | assay | test system | conditions | how to read | quantity | value
COc1ccc(NC(=O)CSc2nc3ccccc3c(=O)n2-c2ccc(S(N)(=O)=O)cc2)cc1 | microbial growth, well diffusion | MRSA | 500 µg/mL, 24 h | – | inhibition zone | 20 mm
N=C(N)NCCC[C@H](NC(=O)[C@H](Cc1c[nH]c2ccccc12)NC(=O)[C@H](CCC(N)=O)NC(=O)[C@H](Cc1c[nH]c2ccccc12)NC(=O)[C@H](CCCNC(=N)N)NC(=O)[C@@H](N)CCCNC(=N)N)C(=O)NCCCC[C@H](NC(=O)[C@H](CCCNC(=N)N)NC(=O)[C@H](Cc1c[nH]c2ccccc12)NC(=O)[C@H](CCC(N)=O)NC(=O)[C@H](Cc1c[nH]c2ccccc12)NC(=O)[C@H](CCCNC(=N)N)NC(=O)[C@@H](N)CCCNC(=N)N)C(=O)NCCCCCC(=O)N[C@@H](CSSC[C@H](NC(=O)CCCCCNC(=O)[C@H](CCCCNC(=O)[C@H](CCCNC(=N)N)NC(=O)[C@H](Cc1c[nH]c2ccccc12)NC(=O)[C@H](CCC(N)=O)NC(=O)[C@H](Cc1c[nH]c2ccccc12)NC(=O)[C@H](CCCNC(=N)N)NC(=O)[C@@H](N)CCCNC(=N)N)NC(=O)[C@H](CCCNC(=N)N)NC(=O)[C@H](Cc1c[nH]c2ccccc12)NC(=O)[C@H](CCC(N)=O)NC(=O)[C@H](Cc1c[nH]c2ccccc12)NC(=O)[C@H](CCCNC(=N)N)NC(=O)[C@@H](N)CCCNC(=N)N)C(N)=O)C(N)=O | time-kill | ATCC 25923 | – | – | time to bactericidal effect | ≤ 23 h
N=C(N)NCCC[C@@H]1NC(=O)[C@H](CCCNC(=N)N)NC(=O)[C@H](CCCNC(=N)N)NC(=O)[C@H](Cc2ccc3ccccc3c2)NC(=O)[C@H](Cc2c[nH]c3ccccc23)NC(=O)[C@H](Cc2ccc3ccccc3c2)NC(=O)[C@H](CCCNC(=N)N)NC1=O | XTT | MRSA ATCC BAA-1556 | MIC | relative to: untreated | biofilm reduction | 40 to 45%
O.O.O.O.O=C([O-])Cc1ccccc1Nc1c(Cl)cccc1Cl.O=C([O-])Cc1ccccc1Nc1c(Cl)cccc1Cl.[Na+].[Na+].c1cnc2c(c1)ccc1cccnc12.c1cnc2c(c1)ccc1cccnc12 | crystal violet | NCTC 6571 | 500 µM | – | biofilm inhibition | 0.374 ± 0.304%
O=C(CCc1cc(O)c(O)c(O)c1)NCCCCCCCCCC[P+](c1ccccc1)(c1ccccc1)c1ccccc1 | propidium iodide uptake | XU212 | 2 x MIC, 1 h | – | cells with damaged membrane | 44.7%
COC(=O)[C@H](Cc1cnc(C23CC4CC(CC(C4)C2)C3)[nH]1)NC(=O)[C@H](Cc1c[nH]c2ccccc12)NC(=O)[C@H](Cc1cnc(C23CC4CC(CC(C4)C2)C3)[nH]1)NC(=O)OC(C)(C)C | – | – | – | – | IC50 | 4.22 µg/mL
CC(C)CNCc1cc(N(C)C)c2c(c1O)C(=O)C1=C(O)[C@]3(O)C(=O)C(C(N)=O)=C(O)[C@@H](N(C)C)[C@@H]3C[C@@H]1C2 | – | MRSA 5 tetM, mouse thigh infection model | sc, 20 mg/kg, 24 h | relative to: untreated control | log10 CFU reduction | 2.49 to 3.11 log10
CC(C)C[C@H](NC(=O)[C@H](CCCCN)NC(=O)[C@H](CCCNC(=N)N)NC(=O)[C@@H](CC(C)C)NC(=O)[C@H](Cc1ccc(-c2ccccc2)cc1)NC(=O)[C@H](CC(=O)O)NC(=O)[C@H](CCCCN)NC(=O)[C@@H](CC(C)C)NC(=O)[C@H](CCCNC(=N)N)NC(=O)[C@H](CCC(N)=O)NC(=O)[C@@H](NC(=O)[C@@H](CC(C)C)NC(=O)[C@H](CCCNC(=N)N)NC(=O)[C@H](CCCCN)NC(=O)[C@H](Cc1ccc(-c2ccccc2)cc1)NC(=O)CN)C(C)C)C(=O)N[C@H](C(N)=O)C(C)C | biofilm disruption, XTT | USA300 | 24 h, 24 h preformed biofilm, TSB | – | minimum antibiofilm concentration | 12.5 µM
COc1cc(OC)c2c(c1)C(=O)c1cc3oc(=O)cc(C)c3c(O)c1C2=O | – | MTCC 96 | 100 µg/disc | – | zone of inhibition | < 8 mm
CC[C@H](C)[C@H](NC(=O)[C@H](CCCCN)NC(=O)[C@H](CC(N)=O)NC(=O)[C@H](Cc1c[nH]c2ccccc12)NC(=O)[C@H](Cc1ccccc1)NC(=O)[C@H](CCCCN)NC(=O)[C@H](CCCNC(=N)N)NC(=O)[C@H](CC(C)C)NC(=O)[C@H](Cc1c[nH]c2ccccc12)NC(=O)[C@H](CCCCN)NC(=O)[C@H](CCCNC(=N)N)NC(=O)[C@H](CC(C)C)NC(=O)CNC(C)=O)C(=O)N[C@@H](CCCCN)C(=O)N[C@@H](CCCNC(=N)N)C(N)=O | – | – | 12 h, added: plasma pretreatment | relative to: MIC without plasma pretreatment | MIC fold increase | 16 fold
COc1ccccc1C(=O)Oc1cccccc1=O | time-kill | ATCC 29213 | 1 x MIC80, 24 h | – | reduction in viable count | 1 log10 CFU
O=[N+]([O-])c1ccc2c(c1)C=[N+]1N3C(=[O+][Cu-2]1([Cl])[O]2)c1ccccc1NC3c1cc([N+](=O)[O-])ccc1O (centres unmarked) | mature biofilm | ATCC 29213 | concentration not given, 24 h | – | biofilm eradication concentration 80% | 1 × MIC
CC(=NNC(=N)N)c1nnn(-c2ccc(C#CC3(O)CCCCC3)cc2)c1C | – | ATCC 43300 MRSA | – | – | MBC | 15.6 µg/mL (≈ 41.2 µM)
CC(C)C[C@H](NC(=O)[C@H](CC(N)=O)NC(=O)[C@H](CCCNC(=N)N)NC(=O)[C@@H](CC(C)C)NC(=O)[C@H](Cc1ccc(-c2ccccc2)cc1)NC(=O)[C@H](CC(=O)O)NC(=O)[C@H](CCCCN)NC(=O)[C@@H](CC(C)C)NC(=O)[C@H](CCCN)NC(=O)[C@H](CCC(N)=O)NC(=O)[C@@H](NC(=O)[C@@H](CC(C)C)NC(=O)[C@H](CCCNC(=N)N)NC(=O)[C@H](CCCCN)NC(=O)[C@H](Cc1ccc(-c2ccccc2)cc1)NC(=O)CN)C(C)C)C(=O)N[C@H](C(N)=O)C(C)C | XTT | USA300 | 24 h, 37 °C | – | biofilm inhibitory concentration | 12.5 µM
CCCCCCCCCC1CC2CCCC3CC(CCCCCCCCC)NC(=N1)N23 (centres unmarked) | bacterial growth | ATCC 29213 | – | – | IC50 | 3.01 µM
Fc1ccc2nc3c4cccnc4c4ncccc4c3nc2c1.[Cl-].[Cl-].[Ru+2].c1ccncc1.c1ccncc1.c1ccncc1.c1ccncc1 | – | – | LED irradiation 470 nm | – | MIC90 | 4 µM
